Results pooled from the literature.
Each line is one published result; not all experiments were run side by side.
Target: Phosphatidylinositol 5-phosphate 4-kinase type-2 beta (PIP4K2B, Homo sapiens, UniProt P78356)

CNC1C[S+]2CC[S+]3CC[S+](C1)[Ru-4]321([N]=C=S)[n]2c3ccc(OC)cc3c3c4c(c5cc(F)c[n+]1c5c32)C(=O)NC4=O (stereo not shown) has a remaining binding of 95% (KinomeScan; 0.1 µM; reference: untreated).
CC(C)=CC1OC(C)(C)C2C=C3C(=O)C(Cl)=CC(O)C3C3C(O)C4OC4C(=O)C132 (stereo not shown) has a remaining binding of 100% (cell-free assay, competition with immobilised ligand; 10 µM).
The remaining binding of Cc1ccc(-c2c(/C=C(\C#N)C(=O)NC(C)C)n(CCCO)c3ncnc(N)c23)cc1 is reported as 87% (cell-free assay, competition with immobilised ligand; 1 µM).
COc1cc(Nc2nc(C)cc(-c3cnn4nc(OC)ccc34)n2)cc(C(F)(F)F)c1 gave a remaining binding of 96% (binding, competition with immobilised ligand; 1 µM).
With C=CC(=O)N1CCCC(n2c(=O)c3ncccc3n(Cc3ccc(Oc4ccccc4)cc3)c2=O)C1 (stereo not shown) the remaining binding was 100% (cell-free assay, competition with immobilised ligand; 1 µM).
CNC(=O)C1CCN(c2cc(C)c(F)cc2NC(=O)c2ccc(-c3cc(O)ccc3C)c(C)c2)CC1 has a remaining binding of 100% (binding, competition with immobilised ligand; 1 µM).
COc1c(Cl)cccc1Nc1c(-c2ccncc2C#C[C@@]2(C)CCCN2C(=O)/C=C/CN(C)C)[nH]c2c1C(=O)NCC2 gave a remaining binding of 100% (cell-free assay, competition with immobilised ligand; 3 µM).
COc1cc(Nc2nccc(-c3cnn4nc(OC)ccc34)n2)cc(C(F)(F)F)c1 has a remaining binding of 50% (binding, competition with immobilised ligand; 1 µM).
For Nc1ncc2c(n1)-c1c([nH]c3ccc(C4=CCOCC4)cc13)CCC2, the remaining binding was 74% (binding, competition with immobilised ligand; 1 µM).
With C=CC(=O)N1CCc2ccc(-n3c(=O)ccc4cnc5ccc(-c6cnn(C)c6)cc5c43)cc21 the remaining binding was 100% (KINOMEscan; 1 µM; reference: DMSO control).
With Cc1cnc2nc1Nc1cccc(c1)COC/C=C/COCc1cc(ccc1OCCN1CCOCC1)N2 the remaining binding was 100% (binding, competition with immobilised ligand; 0.1 µM).
With CS(=O)(=O)Nc1cccc(-c2csc3cnc(Nc4ccc(N5CCN(CCCCCOc6cccc7c6C(=O)N(C6CCC(=O)NC6=O)C7=O)CC5)cc4)nc23)c1 (stereo not shown) the inhibition was 7.5% (probe labelling, inhibitor, KiNativ chemoproteomics; MOLT-4; 1 µM).
The remaining binding of CCN1CCN(Cc2ccc(C(=O)Nc3ccc(C)c(NCc4cnc5[nH]ccc5c4OC)c3)cc2C(F)(F)F)CC1 is reported as 100% (binding, competition with immobilised ligand; 1 µM).

For quick reference, copied from above:
With C=CC(=O)N1CCc2ccc(-n3c(=O)ccc4cnc5ccc(-c6cnn(C)c6)cc5c43)cc21 the remaining binding was 100% (KINOMEscan; 1 µM; reference: DMSO control).
With Cc1cnc2nc1Nc1cccc(c1)COC/C=C/COCc1cc(ccc1OCCN1CCOCC1)N2 the remaining binding was 100% (binding, competition with immobilised ligand; 0.1 µM).
